Published values collected from several papers.
Each line is one published result; not all experiments were run side by side. “And” joins repeats or separate records; there may be more than shown. ± marks the error that the study gave. ≈ marks a conversion by molar mass, not a printed value.

SMILES	tested on	assay	test system	conditions	how to read	endpoint	result
CC(C)n1ncc2c(C(=O)NCC3CNC3)cc(C3CC3)nc21	–	metabolic stability	mouse, liver microsomes	–	–	microsomal CLint	< 9.6 µL/min/mg
NC(=O)[C@H](CCC(=O)O)NC(=O)[C@H](CCC(=O)O)NC(=O)[C@H](Cc1ccc(O)cc1)NC(=O)[C@H](Cc1ccccc1)NC(=O)[C@H](Cc1ccccc1)NC(=O)OCC1c2ccccc2-c2ccccc21	–	CD spectroscopy	peptide nanofibres	–	–	β-turn content	14.3%
CC1(N(CC(=O)O)CC(=O)O)CN(CC(=O)O)CCN(CC(=O)O)C1	–	pH-potentiometry, measured: logK4H	0.15 M NaClO4	25 °C	–	protonation constant (log)	1.94
O=C(c1ccccc1)N1C(c2ccc(OCC3CCN(CCCF)C3)cc2)c2ccc(O)cc2CC12CC2 (stereo not drawn)	–	–	C57BL/6J mouse, plasma	intraperitoneal, 25 mg/kg, group mean	–	AUC(0-t)	8320 ng·h/mL
C/C(N)=N/C(=N\S(=O)(=O)c1ccc(C(F)(F)F)cc1)N1C[C@H](c2ccccc2)C(c2ccc(Cl)cc2)=N1	–	–	male Sprague-Dawley rat, bile-duct cannulated	intravenous, 3 mg/kg	baseline: dose	biliary excretion	0.97%
C=C(NC(=O)c1csc(-c2nc3c(cc2O)-c2nc(cs2)C(=O)NC(C(C)O)C(=O)NC(=C(C)OC)c2nc(cs2)C(=O)NC2c4nc(cs4)C(=O)NC(COC(=O)c4c5c6c(cccc6n4O)COC(=O)C(OC4CC(C)(O)C(N(C)C)C(C)O4)C2OC5)c2nc-3cs2)n1)C(N)=O (stereo not drawn)	–	–	Sprague-Dawley rat, female, plasma	intravenous infusion, 6 mg/kg, multiple doses, day 7	–	Tmax	4.8 min
Cc1cc(-c2ccc(C(=O)[C@@H]3CCCC[C@H]3C(=O)Nc3cnn4c3C(=O)NCC4)cc2)[nH]n1	–	–	human, urine	oral, 200 mg, 144-168 h	baseline: dose	recovery of radioactivity per interval	0.01%
CN(O)C(=O)CCC(=O)NCCCN(CCCCN(CCCNC(=O)CCC(=O)N(C)O)C(=O)CCC(=O)N(C)O)C(=O)CCC(=O)N(C)O.[89Zr]	–	–	mouse, fat	4 h	–	tracer uptake	0.01 %ID/g
Cc1cccc(O[C@H]2CCC[C@@H](C(C)CNCc3ccncc3)C2)c1 (relative stereo)	–	–	C57BL/6 wild-type mouse pups	25 mg/kg, one month	–	body weight	1.7 g and 1.5 g and 1.6 g and 1.2 g
C=CC(=O)Nc1cc(Nc2nccc(-c3cn(C)c4ccccc34)n2)c(OC)cc1N(C)CCNC	–	storage stability	human plasma	24 h, -80 °C, LLOQ level	–	recovery	91%
CC[C@H](C)[C@H](NC(=O)[C@H](CCCCN)NC(=O)[C@H](CCC(=O)O)NC(=O)[C@H](CO)NC(=O)[C@H](Cc1ccccc1)NC(=O)[C@H](CC(C)C)NC(=O)[C@H](CCC(N)=O)NC(=O)[C@H](CO)NC(=O)[C@H](C)NC(=O)[C@H](CCCCN)NC(=O)[C@H](Cc1c[nH]cn1)NC(=O)[C@H](Cc1c[nH]c2ccccc12)NC(=O)[C@H](CCC(N)=O)NC(=O)[C@H](CCCCN)NC(=O)[C@H](CCCCN)NC(=O)[C@H](CC(C)C)NC(=O)CNC(=O)[C@H](C)NC(=O)[C@@H](NC(=O)[C@H](CO)NC(=O)[C@@H](N)CCSC)C(C)C)C(=O)N[C@@H](CO)C(=O)NCC(=O)N[C@@H](C)C(N)=O	–	circular dichroism titration	25% DOPS/75% DOPC liposomes	50 µM, pH 7.4, 20 °C	–	ΔG of binding	-6.3 kcal/mol
C[C@@H](Nc1nc2c(cnn2C(C)(C)C)c(=O)n1Cc1cccc(F)c1)c1ccc(Cl)cc1	–	–	male C57BL/6J mice, brain	oral, 10 mg/kg, 1 h	–	brain concentration	236 ng/g
O=C(O)CN1CCN(CC(=O)O)CCN(CC(O)CN(CC(O)CN2CCN(CC(=O)O)CCN(CC(=O)O)CCN(CC(=O)O)CC2)C[C@H](O)[C@@H](O)[C@H](O)[C@H](O)CO)CCN(CC(=O)O)CC1 (stereo partly drawn)	–	pH-potentiometry, spectrophotometry, measured: CuHL	–	25 °C, 0.15 M NaCl	–	log K	9.15
CC1(C)CC[C@]2(NC(=O)C(C)(F)F)CC[C@]3(C)[C@H](C(=O)C=C4[C@@]5(C)C=C(C#N)C(=O)C(C)(C)[C@@H]5CC[C@]43C)[C@@H]2C1	–	–	human	oral, dose not given, added: efavirenz	baseline: compound alone	Cmax decrease	38%
CC(C)C[C@H](NC(=O)[C@H](CCCCN)NC(=O)C1CCC=CCCC(NC(=O)[C@H](CCCCN)NC(=O)[C@@H](N)CC(C)C)C(=O)N[C@@H](CCCCN)C(=O)N[C@@H](CC(C)C)C(=O)N[C@@H](CCCCN)C(=O)N2CCC[C@@H]2C(=O)NCC(=O)N[C@@H](CCCCN)C(=O)N[C@@H](CC(C)C)C(=O)N[C@@H](CCCCN)C(=O)N1)C(N)=O (stereo partly drawn)	–	RP-HPLC C18	–	hydrophobicity	–	retention time	15.8 min
Cc1nc(N)nc2c1C(=O)N[C@@H](c1ccc(F)cc1-c1cccc(O[11CH3])n1)C2	–	ex vivo biodistribution	mice, U87 subcutaneous xenograft, heart	60 min post-injection, baseline, vehicle pre-treatment	–	tracer uptake	0.9 ± 0.1 %ID
Cc1c(Cc2cccc(OC(C)(C)C(=O)O)c2)c2ccc(C(=O)N[C@@H](C)c3cccc(C#N)c3)cc2n1C	–	–	human liver microsomes	–	–	half-life	57.8 min
CN1CCC[C@@H]1C(=O)N[C@@H](Cc1ccc(-c2ccccc2)cc1)B(O)O	–	–	NODscidIL2Rγnull mice, whole blood	oral, 50 mg/kg, 6 h, mean	–	blood concentration	240 ng/mL
Oc1ccnc(-c2cc(O)ccn2)c1.[Cl-].[Cl-].[Ru+2].c1ccc(-c2ccnc3c2ccc2c(-c4ccccc4)ccnc23)cc1.c1ccc(-c2ccnc3c2ccc2c(-c4ccccc4)ccnc23)cc1	–	–	acetonitrile	basic deprotonated form	–	singlet oxygen quantum yield	0.19
Cc1ccc(OCC(=O)N(Cc2cccs2)c2ccn[nH]2)cc1	–	–	dog plasma	750 ng/mL, 0.25 h, 37 °C, unit not given	baseline: time zero	remaining compound	116
CN1CCC[C@]1(C)/C=C/S(=O)(=O)NC(=O)Nc1c2c(cc3c1CC(O)C3)CCC2 (stereo partly drawn)	–	–	human, plasma	oral, 100 mg twice daily of parent drug, day 14, metabolite of dosed drug	–	Cmax at first steady-state dose	12100 ng/mL
O=C(Nc1cccc(CNc2ncccn2)c1)c1cc(-c2ccccc2)n(-c2ccccc2)n1	–	–	rat liver microsomes	4 h	–	depletion	< 30%
COCC1CN(C2CCN(c3cc(OC)c(Nc4ncc(Br)c(Nc5ccc6c(c5P(C)(C)=O)OCCO6)n4)cc3C)CC2)C1	–	–	EGFR-mutant NSCLC patients, plasma	oral, 150 mg single dose, geometric mean	–	Cmax	685 ng/mL

SMILES	tested on	assay	test system	conditions	how to read	endpoint	result
CN(C)CCCCCN(C)Cc1cc2ccccc2o1.Cl	Trypanosoma cruzi	reporter mRNA translation, inhibitor, measured: Renilla luciferase mRNA	cell-free extract	concentration not given, test 2	baseline: positive over negative control	translation activity	108% and 115%
O=S1(=O)CC2CCCCC2CS1 (stereo not drawn)	–	phase solubility, NMR	water	25 °C, added: hydroxypropyl-β-cyclodextrin 21.4 mM	–	solubility	4.14 mM (≈ 854 µg/mL)
O=C(Nc1cnccc1-c1ccc([18F])nc1)c1ccnc(NC(=O)C2CC2)c1	–	–	FVB/NJ mice, both sexes, liver	intravenous, 50 min, median, no P-gp inhibitor	–	SUV	8.4
CC(C)(C)NCC(SS(=O)(=O)O)c1ccccc1 (stereo not drawn)	–	–	Swiss Webster mice, Schistosoma mansoni-infected	100 mg/kg single dose on day 42 post-infection, perfusion day 56 post-infection	baseline: vehicle	body weight decrease	-4.62%
C=CC(=O)Nc1cccc(Cn2ncc3cnc(Nc4cnn(CCOC)c4)nc32)c1	–	–	dog hepatocytes	–	–	scaled intrinsic clearance	614 mL/min/kg
O=C([O-])CN1CCN(CC(=O)[O-])CCN(C(CO)C(O)CO)CCN(CC(=O)[O-])CC1.[Dy+3] (stereo not drawn)	–	–	cynomolgus monkey, liver	dose not given, day 5	–	lanthanide tissue concentration	4.2 ± 1.6 nmol/g
CN1CCCNC(=O)c2cccc(c2)C(=O)NCCCN(C)CCCNc2cccc3c2C(=O)c2cccc(c2C3=O)NCCC1	–	–	mouse xenograft model	dose not given, day 4	–	body weight	26 g and 27 g and 29 g
CN1CCC[C@]1(C)/C=C/S(=O)(=O)NC(=O)Nc1c2c(cc3c1CCC3O)CCC2 (stereo partly drawn)	–	–	human, plasma	oral, 50 mg twice daily of parent drug, day 14, metabolite of dosed drug	–	Cmax at second steady-state dose	34000 ng/mL
N=C(N)NCCC[C@@H]1NC(=O)[C@H](CO)NC(=O)[C@@H](NC(=O)[C@H](CO)NC(=O)[C@H](CO)NC(=O)[C@H](Cc2c[nH]c3ccccc23)NC(=O)CNC(=O)[C@H](CO)NC(=O)[C@@H](N)Cc2c[nH]c3ccccc23)CSSC[C@@H](C(=O)NCC(=O)O)NC(=O)[C@H](CO)NC1=O	–	–	patients, plasma	intravenous, 10 mg/kg, thrice weekly, geometric mean	–	Cmax	5880 ng/mL
Cc1c(Cc2cccc(OC(C)(C)C(=O)O)c2)c2ccc(C(=O)N[C@@H](C)c3cccc(C(C)(C)C)c3)cc2n1CC1CC1	–	–	human liver microsomes	–	–	half-life	26.4 min
CC(C)(O)c1ncc([S@](N)(=O)=NC(=O)Nc2c3c(cc4c2CCC4)CCC3)s1	–	measured: general and administration-site disorders	healthy human volunteers	oral, 600 mg single dose, spray-dried dispersion	–	subjects with adverse events	17%
C=CC(=O)Nc1cc(Nc2nccc(-c3c[nH]c4ccccc34)n2)c(OC)cc1N(C)CCN(C)C	–	storage stability	human dried blood spot	30 d, -80 °C, MQC level	–	recovery	92.3%
CNc1cc(C)c(C(N)=O)cn1	–	–	Han Wistar rats, male, plasma	oral, 30 mg/kg, 1.50 h	–	concentration at time	81.1 µM
[123I]c1ccc2nc(-c3ccc(-n4ccnn4)nc3)cn2c1	–	–	male Wistar rat, blood	intravenous, 4 MBq, 24 h	–	tracer uptake	0.007 %ID/g
Cc1nn(-c2nc3c(F)cc(F)cc3s2)c(O)c1C(c1ccc(C(F)(F)F)cc1)c1c(C)nn(-c2nc3c(F)cc(F)cc3s2)c1O	–	–	ICR mouse	intraperitoneal, 10 mg/kg, 4.00 h	–	plasma concentration	3520 ng/mL and 1550 ng/mL and 2330 ng/mL
CN(C)S(=O)(=O)c1ccc(S(=O)(=O)N2CCC(n3c(=O)[nH]c4ccccc43)CC2)cc1	–	–	mouse	dose not given, day 4	baseline: day 0	relative body weight	98% and 97% and 103% and 101% and 99%
COc1ccnc(C(=O)N[C@H]2COC(=O)[C@H](Cc3ccccc3)[C@@H](OC(=O)C(C)C)[C@H](C)OC2=O)c1O	–	soil adsorption	soil	pH 5.9, organic carbon 0.9 %	–	KFoc	33600 mL/g
CCCCC[C@@H]1OC(=O)[C@@H](C)N(C)C(=O)[C@H](CCCCC)OC(=O)[C@@H](C)N(C)C(=O)[C@H](CCCCC)N(C)C(=O)[C@@H](C)N(C)C(=O)[C@H](CCCCC)OC(=O)[C@@H](C)N(C)C1=O	–	PAMPA	–	500 µM, pH 7.4	–	log Papp	-5.28 ± 0.21
Nc1nc2nn[nH]c2c(=O)[nH]1	Trypanosoma cruzi	reporter mRNA translation, inhibitor, measured: Renilla luciferase mRNA	cell-free extract	concentration not given, test 3	baseline: positive over negative control	translation activity	96.7%
C#CCOCCOCCOCCOCCn1cc(C(ONC(=O)/C=C/C(C)=C/C2(C)Oc3cc(N(C)C)ccc3C2=O)(c2ccc(C)cc2)c2ccc(C)cc2)nn1 (stereo not drawn)	–	HPLC	aqueous buffer, 20% acetonitrile	concentration not given, 0 min, pH 3	baseline: initial prodrug amount	release from prodrug hydrolysis	100%
CCCCN1C(=O)c2cccc3c(NCCCN4CCOCC4)ccc(c23)C1=O	–	–	water	pH 6.0	–	fluorescence quantum yield	0.47
CC(=O)N([O-])CCCCCNC(=O)CCC(=O)N([O-])CCCCCNC(=O)CCC(=O)N([O-])CCCCCN.[89Zr+4]	–	–	mouse, fat	24 h	–	tracer uptake	0.03 %ID/g

A few entries again:
SMILES	tested on	assay	test system	conditions	how to read	endpoint	result
COCC1CN(C2CCN(c3cc(OC)c(Nc4ncc(Br)c(Nc5ccc6c(c5P(C)(C)=O)OCCO6)n4)cc3C)CC2)C1	–	–	EGFR-mutant NSCLC patients, plasma	oral, 150 mg single dose, geometric mean	–	Cmax	685 ng/mL
Cc1cc(-c2ccc(C(=O)[C@@H]3CCCC[C@H]3C(=O)Nc3cnn4c3C(=O)NCC4)cc2)[nH]n1	–	–	human, urine	oral, 200 mg, 144-168 h	baseline: dose	recovery of radioactivity per interval	0.01%
